# Experimental data of several laboratories.
# pIC50: −log10 of the molar value.
# Cell line: HEK-293T
SMILES,test,setting,how to read,endpoint,value
C1=CCCC=CCC1.C1=CCCC=CCC1.O=C(N=P12CN3CN(CN(C3)C1)C2)c1cccc[c]1[Pt+].O=C(N=P12CN3CN(CN(C3)C1)C2)c1cccc[c]1[Pt+].[Cl][Hg-]([Cl])[Cl].[Cl][Hg-]([Cl])[Cl].[Cl][Hg][Cl].[Cl][Hg][Cl],"cell growth or viability, MTT",24 h,,pIC50,5.40
O=C(C[P+]([Au-][Cl])(c1ccccc1)c1ccccc1)[O][Ti+2][O]C(=O)C[P+]([Au-][Cl])(c1ccccc1)c1ccccc1.c1cc[cH-]c1.c1cc[cH-]c1,"cell growth or viability, XTT",72 h,,pIC50,5.16
COc1ccc(CONC(=O)C2OC(C)(C)OC2COP2(=O)OCc3ccccc3O2)c(OC)c1 (stereo not shown),"cytotoxicity, Alamar Blue",,,pIC50,< 3.70
C1=CCCC=CCC1.C1=CCCC=CCC1.[Cl][Hg-]([Cl])[Cl].[Cl][Hg-]([Cl])[Cl].[Pt+][c]1ccccc1P(=Nc1ccccc1)(c1ccccc1)c1ccccc1.[Pt+][c]1ccccc1P(=Nc1ccccc1)(c1ccccc1)c1ccccc1,"cell growth or viability, MTT",24 h,,pIC50,5.90
[CH3][Ti+2][O]C(=O)c1ccc([S][Au][PH](c2ccccc2)(c2ccccc2)[c-]2cccc2)cc1.[Fe+2].c1cc[cH-]c1.c1cc[cH-]c1.c1cc[cH-]c1,"cell growth or viability, XTT",72 h,,pIC50,5.51
O=C1NC(=O)C(=NNc2cc(S(=O)(=O)O)cc(S(=O)(=O)O)c2O)C(=O)N1,"cell growth or viability, trypan blue",24 h,,pIC50,1.14
C=C(C)C12OC3(c4ccccc4)OC1C1C(O)C(Br)(CO)C(O)C4(O)C(=O)C(C)=CC4C1(O3)C(C)C2OC(=O)c1ccccc1 (stereo not shown),"importin-β1 nuclear import, item: NFAT-GFP","40 nM, 1 h, together with: ionomycin 30 min",,nuclear accumulation,decreased
O=C(O)c1ccc([S][Au][PH](c2ccccc2)(c2ccccc2)[c-]2cccc2)cc1.[Fe+2].c1cc[cH-]c1,"cell growth or viability, XTT",72 h,,pIC50,5.52
CC1(C)O[C@H](COP2(=O)OCc3ccccc3O2)[C@H](C(=O)NO)O1 (stereo partly shown),"cytotoxicity, Alamar Blue",,,pIC50,< 3.70
CC(C)C12OC1C1OC13C1(C)CCC4=C(COC4=O)C1CC1OC13C2OC(=O)CCCOC1OC(CO)C(O)C(O)C1O (stereo not shown),"cell proliferation, thymidine incorporation",,reference: compound over triptolide,IC50 ratio,~13 fold
